Published values gathered from unrelated publications.
Each numbered part is a random draw from the data of one study; scales do not carry over between parts.

Sample 1
Target: Replicase polyprotein 1ab, polymerase (rep, Severe acute respiratory syndrome coronavirus 2, UniProt P0DTD1)
Effect on: enzyme activity
Action: inhibitor
Tested at: 20 µM
| Compound | inhibition |
| --- | --- |
| CC(=O)N(O)[C@@H]1c2cc(C#N)ccc2OC(C)(C)[C@H]1O | -2.21% |
| C=C[C@]1(C)CC[C@@H](C(=C)C)C[C@H]1C(=C)C | -2.11% |
| CCOc1ccc2ccccc2c1C(=O)N[C@@H]1C(=O)N2[C@@H]1SC(C)(C)[C@@H]2C(=O)O | 21.4% |
| NC(=O)[C@@H](CC1CC1)[C@@H](CCC(F)(F)F)C(=O)N[C@H]1N=C(c2ccccc2)c2cccc(F)c2NC1=O | 0.68% |
| COc1nc(C)nc(Cl)c1NC1=NCCN1 | -7.99% |
| CCOC(=O)[C@H](Cc1ccccc1)NC(=O)c1cc(Cl)c(OCCN2CCN(C)CC2)c(Cl)c1O | -1.56% |
| COCCCOc1cc(C[C@@H](C[C@H](N)[C@@H](O)C[C@H](C(=O)NCC(C)(C)C(N)=O)C(C)C)C(C)C)ccc1OC | -5.55% |
| O=C(NCc1cccc(O)c1)Nc1nc(-c2ccncc2)cs1 | -3.11% |
| Cc1cc(C(C)(C)CC(C)(C)C)ccc1OCCOCC[N+](C)(C)Cc1ccccc1 | 0.14% |
| O=C(NCCS(=O)(=O)c1ccc(C(F)(F)F)cn1)c1ccc(Cl)cc1 | -13.4% |
| CC(C)C[C@H](NC(=O)[C@@H]1CCCN1)C(=O)NCC(N)=O | 1.25% |
| Cc1ccccc1NC(=N)Nc1ccccc1C | -8.33% |
| CCCCC[C@H](O)/C=C/[C@@H]1[C@@H](C/C=C\CCCC(=O)O)[C@H](O)C[C@H]1O | -0.6% |
| Clc1ccc(CCCOCCCN2CCCCC2)cc1 | -1.44% |
| CC(C)(C)C#Cc1cc(N(C(=O)[C@H]2CC[C@H](C)CC2)[C@H]2CC[C@H](O)CC2)c(C(=O)O)s1 | -0.05% |
| O=C(O)[C@H](Cc1ccc(Nc2nccc3ccncc23)cc1)NC1=C(Br)C(=O)C12CCCCC2 | 3.57% |
| NC(=O)c1ccc([N+](=O)[O-])cc1Cl | 1.15% |
| CC(C)C(C(=O)Nc1nccs1)c1ccc(Cl)cc1 (stereo not shown) | -3.73% |
| CC(=O)N(CC(O)CO)c1c(I)c(C(=O)NCC(O)CO)c(I)c(C(=O)NCC(O)CO)c1I (mixture of isomers) | 8.46% |
| NCCCCN(Cc1nc2ccccc2[nH]1)[C@H]1CCCc2cccnc21 | 7.71% |
| CCc1cc(C(C)=O)c(O)cc1OCCCCCC(C)(C)c1nn[nH]n1 | 7.01% |
| Cc1cc(CC(C)CC(C)(C)C)n(O)c(=O)c1 (stereo not shown) | 3.2% |
| O=C1NC(=O)C(=Cc2ccc(-c3ccc(F)cc3)o2)S1 (stereo in doubt) | -1.64% |
| C[C@@H](c1ccc2nccn2c1)n1nnc2ncc(-c3cnn(C)c3)nc21 | 7.27% |

Sample 2
Target: Sal-like protein 4, full length isoform A (SALL4, Homo sapiens, UniProt Q9UJQ4, residues 1-1053)
UniProt Q9UJQ4, sequence (whole entry, looked up): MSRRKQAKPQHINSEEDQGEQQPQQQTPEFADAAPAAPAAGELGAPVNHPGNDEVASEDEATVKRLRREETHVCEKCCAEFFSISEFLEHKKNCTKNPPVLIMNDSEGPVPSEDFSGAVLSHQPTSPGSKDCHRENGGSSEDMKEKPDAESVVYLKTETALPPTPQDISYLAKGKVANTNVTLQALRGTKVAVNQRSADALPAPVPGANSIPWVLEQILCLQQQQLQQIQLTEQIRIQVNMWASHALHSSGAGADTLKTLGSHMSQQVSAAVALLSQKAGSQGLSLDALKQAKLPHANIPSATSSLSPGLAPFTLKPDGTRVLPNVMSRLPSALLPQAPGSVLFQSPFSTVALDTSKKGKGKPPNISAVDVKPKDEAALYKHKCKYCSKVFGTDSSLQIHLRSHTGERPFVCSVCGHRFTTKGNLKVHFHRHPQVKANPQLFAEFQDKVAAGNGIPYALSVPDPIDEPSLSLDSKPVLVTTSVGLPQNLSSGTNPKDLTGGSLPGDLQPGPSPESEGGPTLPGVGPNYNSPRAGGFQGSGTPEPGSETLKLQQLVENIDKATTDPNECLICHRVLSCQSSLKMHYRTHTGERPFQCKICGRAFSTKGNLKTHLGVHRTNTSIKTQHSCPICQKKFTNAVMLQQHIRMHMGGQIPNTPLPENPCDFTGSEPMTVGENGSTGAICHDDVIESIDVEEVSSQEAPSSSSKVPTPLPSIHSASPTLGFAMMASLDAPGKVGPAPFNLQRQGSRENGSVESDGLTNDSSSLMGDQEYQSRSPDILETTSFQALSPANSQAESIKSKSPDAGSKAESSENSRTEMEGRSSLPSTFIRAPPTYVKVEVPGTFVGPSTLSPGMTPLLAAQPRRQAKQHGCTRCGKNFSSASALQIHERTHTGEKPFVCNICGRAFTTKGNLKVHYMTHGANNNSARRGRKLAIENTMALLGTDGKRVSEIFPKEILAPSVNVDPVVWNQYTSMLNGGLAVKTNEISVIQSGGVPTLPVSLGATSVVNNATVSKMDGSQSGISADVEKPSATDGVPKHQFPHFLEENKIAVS
Method: universal PBM
Molecule type: double-stranded DNA, one strand shown
Medium: in vitro
Tested at: 600 nM
Notes: 8-mer, flanks averaged, mean of replicates
Direction: higher = stronger binding
| Sequence | E-score |
| --- | --- |
| CAAATACC | 0.0827 |
| ATCGCCCC | -0.256 |
| CTAGATAC | 0.17 |
| AATATCGC | 0.192 |
| GCTCGGGA | -0.294 |
| CAAGCAAA | 0.162 |
| TCGTTGCA | 0.0215 |
| CAGGACAA | 0.0809 |

Sample 3
Target: Histone acetyltransferase KAT6A, both winged helices, GST fusion (KAT6A, Homo sapiens, UniProt Q92794, residues 1-181)
Method: protein binding microarray
Molecule type: double-stranded DNA, one strand shown
Medium: in vitro
Tested at: not given
Notes: 8-mer, flanks averaged, mean of 2 arrays, mostly near background
Relative to: not given
Direction: higher = stronger binding
Target sequence (chain): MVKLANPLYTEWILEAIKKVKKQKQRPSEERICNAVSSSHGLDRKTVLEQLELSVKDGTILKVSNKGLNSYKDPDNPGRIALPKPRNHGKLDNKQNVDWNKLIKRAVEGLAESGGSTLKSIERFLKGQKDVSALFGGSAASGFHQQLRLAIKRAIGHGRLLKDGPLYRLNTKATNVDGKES
| Sequence | E-score |
| --- | --- |
| AGTACTGC | -0.0513 |
| AATTATAC | -0.0331 |
| AACGTTCC | 0.15 |
| AGCCCATA | -0.174 |
| ACCCATGG | -0.132 |
| TTCTAGAA | -0.0465 |
| CGAGATGC | 0.0789 |
| CTCCACGC | 0.0794 |

Sample 4
Target: RNA binding protein fox-1 homolog 2, RRM domain, GST-SBP tag (RBFOX2, Homo sapiens, UniProt O43251-10, residues 100-194)
Method: RNA Bind-n-Seq
Molecule type: RNA
Medium: in vitro
Tested at: 365 nM
Notes: natural RNA segment, single round, ends assumed
Relative to: no-protein control
Direction: higher = stronger binding
Shared flanks, not repeated: GGGAGUUCUACAGUCCGACGAUC … UGGAAUUCUCGGGUGCCAA
Target sequence (chain): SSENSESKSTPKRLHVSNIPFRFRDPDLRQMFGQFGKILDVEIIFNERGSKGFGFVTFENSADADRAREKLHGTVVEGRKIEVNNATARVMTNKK
| Sequence | RBNS enrichment (R) |
| --- | --- |
| GCUGGAGUGCACUAGUCUUUUUGCUUAUUCAUUUUGCAUGGUUUUAAAAUUAAAAAUAAUUCCGAAGAUACACCAGCUCACAAAUGAAAACGUCAGCCUCUGCCCCACCC | 3.41 |
| GACAGAAAUGUCUCUGGGAUCUGUGGCUGGCUUGCCCCGGGCAUCUCUCCUUUAAGCUCAAGUUUUGAACUCUCUGCGGUUUUCCACCCCUGCCUUCUCAGCCACAUGCU | 0.276 |
| AGCCUUUUCCUAUCCACUUCCCUUACCAAGUGUAUCCAAGCGUGCACCCACCUCCUCAUUGGAUGGCUCCCUCCAUGCACUGACCCUCUGCCUGCCUUUGUACCUCACUC | 2.03 |
| AGGCAUUUGAGCUCGACCUCCGAAAAGCUACCCAGCAAAGAGCAGUCUGUGCCUCUGAGCAGACCGUGAGAACUCAGGGGACGAGUGGCUAAGAGCAUGGCCUCUCCCAG | 0.881 |
| UCCCCACCCCACACAUACCACUGCUUUGUCCAGGUGUUUGAUAGAAGAGCAGGGCAGGAAGACAGUUCAGGAGAUGGGUGUCAAGUUUUCUCUUGGUUGAUUUCAUUCCC | 0.58 |
| AGUUUCUGGCUUGCUUCUCCCUUUGUAUAGGGGAGAACAGAGAAGAGGUUUAUGCUGAGGGGGGGUGACUUUUUAGAAACGUAGCUUCUUGGCGUUUUGCAACCCAUGCU | 2.73 |
| ACUAUGAACCUUCUAAACAGUACCAACACUGUCAUGUGACUAAUGCUGCCUCUAGACCUCGCCCACGUGGACAGACGCUUCCUGUCAUGGCUCUGCCUAGAGAUGUUCCU | 0.237 |
| CUACCCCACCCUCUCGCCCCUGGCACCUGUCUUCUAUUUGUCGAGUUCACUGUUGAUCCUGUUGUAGGUGGUUGGGCUGCUGGUCACCAUGCCACCACUUGGGUUUUUUC | 0.889 |

Mixed results
| SMILES | cell line | test | system | conditions | how to read | measurement | value |
| --- | --- | --- | --- | --- | --- | --- | --- |
| CC(=O)Oc1cc2c(s1)CCN(C(C(=O)C1CC1)c1ccccc1F)C2 (stereo not shown) | HEK-293T | pseudovirus infection, FDA-approved drug library screen | VSV pseudotyped with SARS-CoV-2 spike | 10 µM, 16 h | relative to: vehicle-treated | GFP-positive cells | 118% |
